Assay results of several laboratories.
Values joined by “and” are separate records of one study, mostly repeats; a detail may differ. ± gives the spread as reported.

Structure (SMILES)	target or system	assay	system	conditions	scale	measurement	value
CC(C)n1ncc2c(C(=O)NCC3(C)CNC3)cc(C3CC3)nc21	Enterovirus D68	cytopathic effect	RD, US/IL/14-18956	150 nM		cell protection	0.422% and 0.703% and 0%
Oc1ccc2cccc(O)c2n1	THP-1	pyroptotic LDH release		2 µM, 40 min, together with: LPS then nigericin		inhibition	9.94%
CC(C)C[C@H](NC(=O)C[C@H](O)[C@H](CC(C)C)NC(=O)[C@H](Cc1c[nH]cn1)NC(=O)CNC(=O)[C@@H](NC(=O)[C@H](C)NC(=O)[C@H](Cc1c[nH]c2ccccc12)NC(=O)[C@H](CCC(N)=O)NC(=O)[C@@H](Cc1ccccc1)NC(=O)COCCOCCNC(=O)CCC(C(=O)O)N1CCN(CC(=O)O)CCN(CC(=O)O)CCN(CC(=O)O)CC1)C(C)C)C(N)=O (some centres unmarked) [lutetium-177 labelled]			female BALB/c nu/nu mice, kidneys	intravenous, 50 pmol, 24 h		tissue uptake	1.3 ± 0.3 %ID/g
COc1ccc2c(C)cc(=O)oc2c1	THP-1	pyroptotic LDH release		2 µM, 40 min, together with: LPS then nigericin		inhibition	10.8%
Fc1ccccc1Nc1nc(NCC2CCCO2)c2ccccc2n1 (centres unmarked)	Renilla luciferase reporter mRNA	in vitro translation, inhibitor	Trypanosoma cruzi translation extract	5 µM		inhibition	20.6%
NS(=O)(=O)c1ccc(CNc2ccnc(Nc3cccc(NC(=O)N4CCCC4)c3)n2)cc1	16-kinase panel	radiometric		1 µM, ATP at Km	below 10% of control	number of kinases inhibited	0
CCN1CCN(Cc2ccc(Nc3ncc(F)c(-c4cc(F)c5nc6n(c5c4)[C@H](C)CCC6)n3)nc2)CC1			human advanced solid tumours	500 mg, phase Ia monotherapy RECIST 1.1		disease control rate	83.3%
CCn1cc(-c2cc(Cn3ccnc3)cc3c2CCN([C@H](c2cc(OC)ccn2)C2CC2)C3=O)c(C(F)(F)F)n1	MIA PaCa-2	cell growth		120 h		EC50	8.49 µM
COc1ccn2c(Cl)c(-c3ccccn3)nc2c1	Leishmania infantum		macrophages, MHOM/MA(BE)/67/ITMAP263, amastigote			IC50	32.5 µM and 9.51 µM
COc1cnc2cccc(N3CCc4c(cc(Cn5ccnc5C)cc4-c4cn(C)nc4C(F)(F)F)C3=O)c2c1	HCC38	cell growth, inhibitor		120 h		EC50	> 30 µM
CC(C)C[C@H](NC(=O)C[C@H](O)[C@H](CC(C)C)NC(=O)[C@H](Cc1c[nH]cn1)NC(=O)CNC(=O)[C@@H](NC(=O)[C@H](C)NC(=O)[C@H](Cc1c[nH]c2ccccc12)NC(=O)[C@H](CCC(N)=O)NC(=O)[C@@H](Cc1ccccc1)NC(=O)COCCOCCNC(=O)CCC(C(=O)O)N1CCN(CC(=O)O)CCN(CC(=O)O)CC1)C(C)C)C(N)=O (some centres unmarked) [lutetium-177 labelled]			female BALB/c nu/nu mice, liver	intravenous, 50 pmol, 1 h		tissue uptake	2.1 ± 0.5 %ID/g
COc1cc(O)c2c(c1)C(=O)c1cc(C)cc(O)c1C2=O	HK-2 co-cultured with HepaRG	MTT		66.67 µM, 24 h	reference: untreated control	viability	104 ± 15%
Cn1cc(-c2ccc(-c3cncc(Cl)c3N3CCC4(CCNC4=O)CC3)cc2)cn1	COLO 205	gene expression, microarray, refers to: BACE1 mRNA		concentration not given, 2 h	reference: untreated cells	log2 fold change	6.8
Cc1cc(O)c2c(c1)C(=O)c1cc(O)cc(O)c1C2=O	HK-2 co-cultured with HepaRG	MTT		33.33 µM, 24 h	reference: untreated control	viability	79.8 ± 8.87%
Cc1ccc2nc(-c3ccccc3)c(CNc3cccc(C(F)(F)F)c3)n2c1	Leishmania infantum		MHOM/MA(BE)/67/ITMAP263	120 h	reference: CC50 macrophages over EC50 amastigotes	selectivity index	2
Nc1nc(F)nc2c1ncn2[C@H]1C[C@H](O)[C@@H](CO)O1	HEK293T ATF4-FLuc reporter	ATF4 reporter gene, activator, luciferase reporter				EC50	2.96 µM
C=CC(=O)Nc1cc(-n2c(=O)ccc3cnc4ccc(-c5ccc(NS(C)(=O)=O)cc5)cc4c32)ccc1C	THP-1	pyroptotic LDH release		2 µM, 40 min, together with: LPS then nigericin		inhibition	18.2%
O=C(/C=C/C=C/C=C/C1CCCCC1)NC1=C[C@@](O)(/C=C/C=C/C=C/C(=O)NC2=C(O)CCC2=O)[C@@H]2O[C@@H]2C1=O	NCI-H82	cell growth, CellTiter-Glo		78 h		GI50	0.0787 µM
O=C(O)CNC(=O)Cc1ccccc1			ventricular cardiomyocytes, C57BL/6 mouse	dose not given, 0.072 s		sarcomere length	1.72 µm

Structure (SMILES)	target or system	assay	system	conditions	scale	measurement	value
CCCCCN(CCC12CC3CC(CC(C3)C1)C2)C(=O)NCCCc1ccncc1	HEK293T ATF4-FLuc reporter	ATF4 reporter gene, activator, luciferase reporter				EC50	> 9.96 µM
CCn1cc(-c2cc(Cn3ccoc3=N)cc3c2CCN([C@@H](C)c2cc(OC)ccn2)C3=O)c(C(F)(F)F)n1	OV7	cell growth, inhibitor		120 h		EC50	0.181 µM
OC(CCN1CCCCC1)(c1ccccc1)C1CC2C=CC1C2 (centres unmarked)		resting-state EEG	healthy elderly humans	oral, 4 mg, eyes closed, LS mean		power, EEG beta, O2-Pz	6.1 µV²
Cc1ccc(-c2c(-c3ccccn3)nc3n2CCC3)cc1	Leishmania infantum		macrophages, MHOM/MA(BE)/67/ITMAP263, amastigote			IC50	0.63 µM and 0.32 µM
CC(C)NCC(O)c1ccc(O)c(O)c1 (centres unmarked)			ventricular cardiomyocytes, C57BL/6 mouse	dose not given, 0.172 s		sarcomere length	1.51 µm
Fc1cc(F)cc(Nc2c(-c3ccccn3)nc3ccccn23)c1	Leishmania infantum		macrophages, MHOM/MA(BE)/67/ITMAP263, amastigote			IC50	3.53 µM and 6.56 µM
CC(C)(C)c1ccc(C(O)CCCN2CCC(C(O)(c3ccccc3)c3ccccc3)CC2)cc1 (centres unmarked)	THP-1	pyroptotic LDH release		2 µM, 40 min, together with: LPS then nigericin		inhibition	3.89%
Cc1ccn2c(CNc3ccc(F)cc3)c(-c3ccccn3)nc2c1	Leishmania infantum		MHOM/MA(BE)/67/ITMAP263	120 h	reference: CC50 macrophages over EC50 amastigotes	selectivity index	5
CCNC(=O)/C=C/c1cccc(Br)c1	endogenous leucine transporters, hamster	L-[14C]leucine uptake	CHO-BC cells	100 µM, 6 min, 37 °C, with sodium		L-leucine uptake	49.6 nmol/mg protein and 53.5 nmol/mg protein and 50.1 nmol/mg protein
Fc1ccc(Nc2c(-c3ccccn3)nc3ccc(F)cn23)cc1	Leishmania infantum		macrophages, MHOM/MA(BE)/67/ITMAP263, amastigote			IC50	8.64 µM and 8.3 µM
Oc1ccccc1-c1n[nH]cc1-c1ccnc2ccccc12	IRE1 (Candida albicans)	kinase binding, MIB/MS competition	Candida albicans lysate	10 µM	reference: DMSO	log2 fold change	0.21
CC(C)=CC(=O)O	THP-1	pyroptotic LDH release		2 µM, 40 min, together with: LPS then nigericin		inhibition	-20.3%
O=C(NCCCNc1nc(Nc2cccc(CN3CCOCC3)c2)ncc1C1CC1)C1CCC1	16-kinase panel	radiometric		1 µM, ATP at Km	below 10% of control	number of kinases inhibited	13
CC1=NN(c2ccc(C)c(C)c2)C(=O)/C1=N\Nc1cccc(-c2cccc(C(=O)O)c2)c1O	THP-1	pyroptotic LDH release		2 µM, 40 min, together with: LPS then nigericin		inhibition	9.33%
Cl.OCCNc1nc(Nc2ccccc2)nc2ccccc12	Renilla luciferase reporter mRNA	in vitro translation, inhibitor	Trypanosoma cruzi translation extract	30 µM		inhibition	64.6%
COc1cccc(-c2nc3ccccn3c2Nc2ccc(F)cc2)n1	Leishmania infantum		macrophages, MHOM/MA(BE)/67/ITMAP263, amastigote			IC50	> 64 µM
COc1cccc(N(C)C(=S)Oc2ccc3c(c2)CCCC3)n1	THP-1	pyroptotic LDH release		2 µM, 40 min, together with: LPS then nigericin		inhibition	-0.784%
Cc1ccc2nc(-c3ccccc3)c(CNc3ccc(F)cc3)n2c1	Leishmania infantum		intramacrophage amastigotes, MHOM/MA(BE)/67/ITMAP263			IC50	> 64 µM
NC(=O)N1CCC(CC(=O)N2CCC([C@H]3c4ncc(Br)cc4CCc4cc(Cl)cc(Br)c43)CC2)CC1	THP-1	pyroptotic LDH release		2 µM, 40 min, together with: LPS then nigericin		inhibition	18%

Excerpt of the above:
Structure (SMILES)	target or system	assay	system	conditions	scale	measurement	value
CC(C)(C)c1ccc(C(O)CCCN2CCC(C(O)(c3ccccc3)c3ccccc3)CC2)cc1 (centres unmarked)	THP-1	pyroptotic LDH release		2 µM, 40 min, together with: LPS then nigericin		inhibition	3.89%
Cc1ccn2c(CNc3ccc(F)cc3)c(-c3ccccn3)nc2c1	Leishmania infantum		MHOM/MA(BE)/67/ITMAP263	120 h	reference: CC50 macrophages over EC50 amastigotes	selectivity index	5
CCNC(=O)/C=C/c1cccc(Br)c1	endogenous leucine transporters, hamster	L-[14C]leucine uptake	CHO-BC cells	100 µM, 6 min, 37 °C, with sodium		L-leucine uptake	49.6 nmol/mg protein and 53.5 nmol/mg protein and 50.1 nmol/mg protein
Fc1ccc(Nc2c(-c3ccccn3)nc3ccc(F)cn23)cc1	Leishmania infantum		macrophages, MHOM/MA(BE)/67/ITMAP263, amastigote			IC50	8.64 µM and 8.3 µM
Oc1ccccc1-c1n[nH]cc1-c1ccnc2ccccc12	IRE1 (Candida albicans)	kinase binding, MIB/MS competition	Candida albicans lysate	10 µM	reference: DMSO	log2 fold change	0.21
